Experimental data collected from several papers.
Every numbered part comes from another study and shows a few of its results, in no order.

Set 1
Target: Prothrombin, mature alpha-thrombin (F2, Homo sapiens, UniProt P00734)
Method: aptamer microarray, sandwich
Molecule type: DNA with 2'F-ANA
Medium: in vitro
Concentration: 200 nM
Notes: whole 15-mer aptamer, many near background
With: Cy3 exosite-II aptamer, 400 nM
Direction: higher = stronger binding
Sequence: GGTTGGTGTGGTTGG
Modification | mean fluorescence intensity
2'F-ANA at 1 2 5 6 8 12 14 15 | 48.7 a.u.
2'F-ANA at 2 3 4 6 7 9 10 13 | 218 a.u.
2'F-ANA at 4 7 9 10 11 12 15 | 105 a.u.
2'F-ANA at 3 4 5 7 8 11 12 13 14 | 55.6 a.u.
2'F-ANA at 1 3 4 6 7 8 9 13 14 15 | 65.1 a.u.
2'F-ANA at 5 7 12 13 15 | 110 a.u.
2'F-ANA at 2 4 6 7 8 10 11 12 | 112 a.u.
2'F-ANA at 1 4 5 6 7 8 9 12 14 15 | 67.7 a.u.

Set 2
Target: Centromere-binding protein 1, full length, His-tagged (CBF1, Saccharomyces cerevisiae, UniProt P17106, residues 1-351)
UniProt P17106, sequence (whole entry, looked up): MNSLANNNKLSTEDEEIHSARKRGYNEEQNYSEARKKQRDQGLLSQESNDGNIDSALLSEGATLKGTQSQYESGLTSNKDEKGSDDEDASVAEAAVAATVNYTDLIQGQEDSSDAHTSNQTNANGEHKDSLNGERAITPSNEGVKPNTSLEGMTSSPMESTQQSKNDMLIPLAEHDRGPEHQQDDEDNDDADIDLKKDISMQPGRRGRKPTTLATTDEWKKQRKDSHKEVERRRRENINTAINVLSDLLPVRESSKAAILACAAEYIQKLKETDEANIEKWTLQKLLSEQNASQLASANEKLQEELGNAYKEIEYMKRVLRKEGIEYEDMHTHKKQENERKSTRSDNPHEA
Method: competition protein-binding microarray
Molecule type: double-stranded DNA, one strand shown
Medium: in vitro
Concentration: 2 µM
Notes: whole 60-bp probe, lowest competitor level
With: Pho4 competitor, 0.05 µM
Direction: higher = stronger binding
All sequences stand within: … GTCTTGATTCGCTTGACGCTGCTG
Sequence | fluorescence intensity [a.u.]
AGGATCGTTGGTGCTCTCGTGATGGTTCGGTGGCGG | 133
ATTTCTTTTCCAATTCACGGGTCAATTTGGTTTGGA | 108
TCTCCATGGCTGAGACTTGTGTGTATCTCACAGTGG | 59.7
CTTCTGTAAATTTGTACGGTGGGTGGACGCGCCCCG | 74.1
AATTTAAGCCTTGGCAACGTGTTGAACCAAGTCGAC | 88.3
GGACAACATGGACTCATCGTGATGGGACTGATATGA | 77.8
AATCTCGGTGAATTAACCGTGATGGATCACTTAGGT | 80.4
CGGGGTTAAGTTTGTATTGTGGGTGGCTTGCAGCAG | 73.5

Further values, each from its own experiment
ADRA2A: Alpha-2A adrenergic receptor (ADRA2A, Homo sapiens, UniProt P08913)
UniProt P08913, sequence (whole entry, looked up): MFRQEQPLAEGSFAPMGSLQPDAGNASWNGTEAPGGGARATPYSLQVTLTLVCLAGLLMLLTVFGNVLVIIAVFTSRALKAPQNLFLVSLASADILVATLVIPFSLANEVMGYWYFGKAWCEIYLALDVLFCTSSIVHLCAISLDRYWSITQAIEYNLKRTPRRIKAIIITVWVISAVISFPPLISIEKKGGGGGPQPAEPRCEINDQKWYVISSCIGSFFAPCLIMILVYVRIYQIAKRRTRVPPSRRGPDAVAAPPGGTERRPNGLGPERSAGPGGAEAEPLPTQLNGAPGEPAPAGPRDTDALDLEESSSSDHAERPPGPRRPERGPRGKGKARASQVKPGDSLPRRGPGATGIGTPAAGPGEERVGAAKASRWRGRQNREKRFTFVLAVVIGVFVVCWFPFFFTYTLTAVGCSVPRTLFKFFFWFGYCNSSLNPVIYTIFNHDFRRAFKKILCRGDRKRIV
ADRB1: Beta-1 adrenergic receptor (ADRB1, Homo sapiens, UniProt P08588)
UniProt P08588, sequence (whole entry, looked up): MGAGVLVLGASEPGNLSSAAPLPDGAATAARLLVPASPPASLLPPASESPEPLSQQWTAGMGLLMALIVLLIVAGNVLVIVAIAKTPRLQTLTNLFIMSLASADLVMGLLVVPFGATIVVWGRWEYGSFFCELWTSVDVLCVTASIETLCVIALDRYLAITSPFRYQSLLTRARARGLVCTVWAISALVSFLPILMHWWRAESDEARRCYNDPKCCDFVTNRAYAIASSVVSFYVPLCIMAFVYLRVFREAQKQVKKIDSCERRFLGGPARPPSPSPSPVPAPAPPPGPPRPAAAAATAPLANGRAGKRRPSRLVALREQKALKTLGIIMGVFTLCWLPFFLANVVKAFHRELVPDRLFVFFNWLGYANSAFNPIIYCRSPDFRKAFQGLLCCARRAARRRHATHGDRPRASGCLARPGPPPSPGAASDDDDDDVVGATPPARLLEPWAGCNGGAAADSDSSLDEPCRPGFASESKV
Compound | target or system | assay | conditions | quantity | value
COc1cc(C(=O)O)ncc1C#Cc1ccccc1NS(=O)(=O)c1cccc2c(N(C)C)ccnc12 | ADRA2A | ligand displacement | 10 µM | inhibition | 44.4%
CC(Cc1ccccc1)NN (stereo not shown) | ADRB1 | agonist |  | EC50 | ≥ 100 µM
CN1CCN(c2cnc3c(C4CCN(C(=O)c5ccc(OC(F)(F)F)cc5N)CC4)ncnc3c2)CC1 | ADRA2A | ligand displacement | 10 µM | inhibition | -3.41%
CC[C@H](C)c1nc2cc(Nc3ccnc4ccc(S(=O)(=O)C(C)C)cc34)ccc2s1 | HT-29 | necroptosis | with: TNF-α, Smac mimetic, z-VAD | EC50 | 4.06 µM
Cc1noc([C@H]2C[C@@H](c3ccc(C(F)(F)F)cc3)CN(C(=O)N3CCS(=O)(=O)C3)C2)n1 | ADRA2A | ligand displacement | 10 µM | inhibition | 6.96%
CCOc1nccn2c(-c3ccc(CNCC(O)CO)cc3)cnc12 (stereo not shown) | ADRB1 | agonist |  | EC50 | ≥ 100 µM

Repeated from above (further values, each from its own experiment):
Compound | target or system | assay | conditions | quantity | value
COc1cc(C(=O)O)ncc1C#Cc1ccccc1NS(=O)(=O)c1cccc2c(N(C)C)ccnc12 | ADRA2A | ligand displacement | 10 µM | inhibition | 44.4%
CC(Cc1ccccc1)NN (stereo not shown) | ADRB1 | agonist |  | EC50 | ≥ 100 µM
